{"data": "Measured values collected from several papers", "note": "A part holds a random share of what one study measured. Positions count from the first letter of the parent shown."}
{"data": "Study 1", "target": "Sal-like protein 4, full length isoform B (SALL4, Homo sapiens, UniProt Q9UJQ4-2, residues 1-616)", "technique": "universal PBM", "form": "double-stranded DNA, one strand shown", "medium": "in vitro", "concentration": "not given", "setting": "8-mer, flanks averaged, mean of replicates", "reading": "higher = stronger binding"}
{"Sequence": "ACACCTGC", "E-score": 0.0161}
{"Sequence": "GCGACCGA", "E-score": -0.171}
{"Sequence": "CAGGTGTA", "E-score": -0.0702}
{"Sequence": "ACCGCTCC", "E-score": -0.279}
{"Sequence": "ACATTAGA", "E-score": 0.21}
{"Sequence": "CAGGGATC", "E-score": -0.228}
{"Sequence": "GACGCGCA", "E-score": -0.206}
{"Sequence": "CCGCCGCC", "E-score": -0.375}
{"Sequence": "GCCGTGGA", "E-score": -0.219}
{"data": "Study 2", "target": "RING finger protein unkempt homolog, zinc fingers 1-6, GST-SBP tag (UNK, Homo sapiens, UniProt Q9C0B0, residues 30-357)", "technique": "RNA Bind-n-Seq", "form": "RNA", "medium": "in vitro", "concentration": "not given", "setting": "RNA with constant flanks, human-mouse chimeric sites, ends assumed", "baseline": "input RNA pool", "reading": "higher = stronger binding", "Construct (chain)": "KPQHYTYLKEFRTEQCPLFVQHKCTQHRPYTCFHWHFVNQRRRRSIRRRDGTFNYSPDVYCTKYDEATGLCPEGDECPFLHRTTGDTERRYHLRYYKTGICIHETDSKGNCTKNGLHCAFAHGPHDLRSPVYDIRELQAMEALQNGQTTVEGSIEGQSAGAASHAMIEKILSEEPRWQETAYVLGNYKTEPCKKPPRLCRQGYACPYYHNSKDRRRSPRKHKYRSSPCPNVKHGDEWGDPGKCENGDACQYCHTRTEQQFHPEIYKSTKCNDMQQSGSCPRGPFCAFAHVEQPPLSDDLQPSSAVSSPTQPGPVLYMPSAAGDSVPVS"}
{"Sequence": "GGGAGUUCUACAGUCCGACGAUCGAUAAGAAAAGCUUGUUGGAGACCCGCUUGCAUGUCACUGGCAGAGACCUGAGGUGUCAAAUAGCUGAAACCUUUGGAUUUCAAGAAAAUUACAUCAAGAUCGUAAUAAAUAAGAAACAGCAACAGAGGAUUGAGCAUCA", "bound/input enrichment": "0.309 ratio"}
{"Sequence": "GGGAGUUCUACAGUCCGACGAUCGAGUCGAGCAAACUUGAAACAAUUCGUUAUCUUGCAGCCUCAGUGUUCACUUGCUUGGCGAUAGCAUAUUGGGAUUUUAGGUUCUGGAAGGAGAACUUUAAUGCUCACUGCCGCUGCUGCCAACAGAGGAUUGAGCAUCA", "bound/input enrichment": "0.596 ratio"}
{"Sequence": "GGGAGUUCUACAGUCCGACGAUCAAGGUGAUGACUAUGUUUGUCCAACGACAGGUAUUUUCGGAGAGCAAAGAUGAGAUUGCUUUAGUCCUCUAUGGCACAGAUGGCACUGAUAAUGCCCUUGCUGGCAAGGACCAGUAUCAGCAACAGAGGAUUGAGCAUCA", "bound/input enrichment": "0.205 ratio"}
{"Sequence": "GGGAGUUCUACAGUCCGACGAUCGUAGCUGGGACUACAGAAAUGCUGGUAAUUUCAGUCACUUGCUGAUGACUUCUGAUGUCCCAGCAAAUAAUGCCACAGUUGACUGCUGAGAAGAUACACUCGCAAGGCCACGUCUAAGGUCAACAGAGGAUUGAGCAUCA", "bound/input enrichment": "0.112 ratio"}
{"Sequence": "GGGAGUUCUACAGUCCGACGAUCAGAGAUAAGACAUCCAGAAAUAUGAGAGGCUCCCGGAUGAAUGGGUUGCCUAGCCCCACUCACAGCGCCCACUGUAGCUUCUACCGAACCAGAACCUUGCAGGCACUGAGUAAUGAGAAGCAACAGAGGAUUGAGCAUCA", "bound/input enrichment": "0.231 ratio"}
{"Sequence": "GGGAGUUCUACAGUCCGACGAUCCUUCGGAAAAAAAAAUUACCUUUUCUGACAGUGCUUUCCCUCCCAUAGAUCCACGUUCAAGCUCAAAGAGCAAAGGCUUUGCACGGAGCUCAAACAUCUGAUGAAGAUUUUUGAGACAGACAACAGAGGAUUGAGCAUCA", "bound/input enrichment": "0.483 ratio"}
{"Sequence": "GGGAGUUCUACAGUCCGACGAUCAAAGAACUACUGAGGCAAGGCAGCAAAUUUAGGAGAGACAUUUCAACACUAUUAAUAGAGUUAGGAUUCCAAAUUAAAAAGAAAACUAAGACAUUAUAUAUCAACAAAGCCAAUGUGUGGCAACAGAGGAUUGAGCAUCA", "bound/input enrichment": "13.2 ratio"}
{"Sequence": "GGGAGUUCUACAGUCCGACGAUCCAGGGCAUUAUUUCUCGUGCUGUUAGACACCUGUUCAAGAGUAUUGAAGAAAAAAAAACCUCAGCGAUUAAAAACGGGCUGCCCCCUCCUGAAUUCAAAGUGAAUGCCCAGUUCCUAGAGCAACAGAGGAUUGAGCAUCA", "bound/input enrichment": "0.374 ratio"}
{"Sequence": "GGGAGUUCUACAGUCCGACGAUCUGUGAACUGAAAGGUGUGAUCUAAAAACAAGAUGACUUUUCCUGGCACAUAUUCCAAAGCAUAGACUUUGUUGCCUGCUGCUUAUUGUCUAAUUUACAGGGAUAUUUAAUUUUGUCAGGUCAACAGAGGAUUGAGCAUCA", "bound/input enrichment": "0.142 ratio"}
{"Sequence": "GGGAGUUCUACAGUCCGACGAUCUCUGGCCACACUCGUGUGUAUGGUGUUUGCUUUGUGGACACUUCACUGGGCAAGUUUUUCAUCGGCCAGUUUUCGGAUGACCGCCACUGUUCGAGAUUUAGGACGCUAGUGGCUCACUAUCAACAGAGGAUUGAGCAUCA", "bound/input enrichment": "0.203 ratio"}
{"Sequence": "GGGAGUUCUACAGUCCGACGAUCGCGAACAGGACUACAGAAGAAUGCUGAAUUUCAGUCACUUGCUGAUGACUUCUGAUGUCCCAGCAAAUGUUGGCAUUGUUGACUGCUGAGAAGAUACUUCUGAGGACCCACGUCUAAGGUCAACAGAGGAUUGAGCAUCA", "bound/input enrichment": "0.0876 ratio"}
{"data": "Study 3", "target": "CCNB3, cyclin fold, Cln2 fusion (human)", "technique": "yeast growth competition, sequencing", "medium": "yeast", "setting": "weak parent motif", "baseline": "not given", "reading": "higher = stronger binding", "starting sequence": "CDKN1A docking peptide (human); SKACRRLFGPVDS"}
{"Variant": "SKACRRMFGPVDS [L7M]", "normalised enrichment score": 0.297}
{"Variant": "SKACRRLFAPVDS [G9A]", "normalised enrichment score": 0.679}
{"Variant": "SKSCRRLFGPVDS [A3S]", "normalised enrichment score": 0.151}
{"Variant": "SKACRGLFGPVDS [R6G]", "normalised enrichment score": -0.0734}
{"Variant": "SKACRRLFGPSDS [V11S]", "normalised enrichment score": 0.384}
{"Variant": "SKACVRLFGPVDS [R5V]", "normalised enrichment score": 0.268}
{"Variant": "SKACRRLHGPVDS [F8H]", "normalised enrichment score": 0.162}
{"Variant": "SMACRRLFGPVDS [K2M]", "normalised enrichment score": 0.885}
{"Variant": "SFACRRLFGPVDS [K2F]", "normalised enrichment score": 0.757}
{"data": "Single results of other studies"}
{"Substance": "PhoQ, residues 284 288 289 292 302 303 SSCLAV", "target": "PhoP, residues 12 14 15 18 19 AQALL (Escherichia coli, UniProt P23836)", "assay": "Sort-seq, refers to: YFP reporter", "system": "E. coli", "conditions": "PhoQ-PhoP variant library, added: 10 µM Mg2+", "scale": "baseline: high Mg2+ state, higher = stronger signaling", "endpoint": "fold induction", "value": 12.6}
{"note": "Some of these lines once more (study 1):"}
{"Sequence": "CAGGTGTA", "E-score": -0.0702}
{"Sequence": "ACACCTGC", "E-score": 0.0161}
